Measurements from different studies.
Each numbered part is a random draw from the data of one study; scales do not carry over between parts.

Sample 1 — method: protein binding microarray; form: double-stranded DNA, one strand shown; medium: in vitro; concentration: not given; reference: not given; reading: higher = stronger binding
Target: Histone acetyltransferase KAT6A, winged helix 2, GST fusion (KAT6A, Homo sapiens, UniProt Q92794, residues 85-181)
Setting: 8-mer, flanks averaged, mean of 2 arrays, mostly near background
Construct (chain): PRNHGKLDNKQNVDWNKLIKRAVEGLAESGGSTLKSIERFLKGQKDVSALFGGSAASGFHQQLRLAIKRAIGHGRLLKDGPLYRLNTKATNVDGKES
Strand | E-score
AGTCCTAA | -0.156
CCTAACAC | 0.0795
GCACACGA | 0.0891
AAAGCCCC | -0.0264
AGAAGTCA | 0.134

Sample 2 — method: universal PBM; form: double-stranded DNA, one strand shown; medium: in vitro; concentration: 600 nM; reading: higher = stronger binding
Target: Sal-like protein 4, full length isoform A (SALL4, Homo sapiens, UniProt Q9UJQ4, residues 1-1053)
Chain of UniProt Q9UJQ4 (whole entry, looked up): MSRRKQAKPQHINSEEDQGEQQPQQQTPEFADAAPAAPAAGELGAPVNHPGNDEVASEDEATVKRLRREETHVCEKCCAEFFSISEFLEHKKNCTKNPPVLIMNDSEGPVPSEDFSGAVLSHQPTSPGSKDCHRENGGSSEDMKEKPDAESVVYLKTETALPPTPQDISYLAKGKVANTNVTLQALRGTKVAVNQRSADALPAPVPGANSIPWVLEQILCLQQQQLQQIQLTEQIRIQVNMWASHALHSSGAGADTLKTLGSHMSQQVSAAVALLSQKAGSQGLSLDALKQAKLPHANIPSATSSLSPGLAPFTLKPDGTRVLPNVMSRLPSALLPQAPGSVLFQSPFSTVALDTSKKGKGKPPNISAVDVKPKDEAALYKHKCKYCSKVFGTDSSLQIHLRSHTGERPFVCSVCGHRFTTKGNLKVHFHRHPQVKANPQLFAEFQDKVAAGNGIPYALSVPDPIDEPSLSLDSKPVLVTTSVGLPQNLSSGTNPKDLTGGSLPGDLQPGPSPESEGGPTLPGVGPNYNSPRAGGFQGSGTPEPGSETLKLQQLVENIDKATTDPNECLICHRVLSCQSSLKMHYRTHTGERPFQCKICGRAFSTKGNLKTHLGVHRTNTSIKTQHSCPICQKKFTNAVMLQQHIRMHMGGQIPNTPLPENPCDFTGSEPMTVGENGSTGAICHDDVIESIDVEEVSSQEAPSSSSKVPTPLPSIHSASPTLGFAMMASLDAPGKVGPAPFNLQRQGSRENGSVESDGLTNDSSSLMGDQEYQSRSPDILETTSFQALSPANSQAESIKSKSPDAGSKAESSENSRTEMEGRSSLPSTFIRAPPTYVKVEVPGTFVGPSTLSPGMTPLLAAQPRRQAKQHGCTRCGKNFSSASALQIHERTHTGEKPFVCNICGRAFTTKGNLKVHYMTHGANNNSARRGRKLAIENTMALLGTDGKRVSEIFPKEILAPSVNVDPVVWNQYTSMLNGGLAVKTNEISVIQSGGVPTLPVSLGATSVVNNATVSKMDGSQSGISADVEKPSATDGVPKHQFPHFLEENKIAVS
Setting: 8-mer, flanks averaged, mean of replicates
Strand | E-score
GAGGCTGC | -0.293
ACTCTGTG | -0.007
CTTTAAAG | 0.137
ACCCCATC | -0.153
GGCCCCGA | -0.376

Sample 3 — method: aptamer microarray, sandwich; form: DNA with 2'F-ANA; medium: in vitro; concentration: 200 nM; with: Cy3 exosite-II aptamer, 400 nM; reading: higher = stronger binding; strand: GGTTGGTGTGGTTGG
Target: Prothrombin, mature alpha-thrombin (F2, Homo sapiens, UniProt P00734)
Setting: whole 15-mer aptamer, many near background
Modification | mean fluorescence intensity
2'F-ANA at 5 6 7 9 12 13 14 | 48.7 a.u.
2'F-ANA at 1 2 3 14 15 | 70.4 a.u.
2'F-ANA at 2 6 7 9 11 12 14 | 181 a.u.
2'F-ANA at 1 2 4 5 6 8 9 10 11 12 13 14 15 | 51.7 a.u.
2'F-ANA at 2 3 5 8 12 13 15 | 195 a.u.

Single results of other studies
Substance | target | test | test system | setting | how to read | measurement | result
PhoQ, residues 284 288 289 292 302 303 TVTVVA | PhoP, residues 12 14 15 18 19 NIMAP (Escherichia coli, UniProt P23836) | Sort-seq, item: YFP reporter | E. coli | PhoQ-PhoP variant library, with: 10 µM Mg2+ | reference: high Mg2+ state, higher = stronger signaling | fold induction | 0.941
